Published values from different studies.
Numbered parts are unrelated; each lists some results of a single study. Changes are numbered by the printed parent chain.
Chain of UniProt P49137 (whole entry, looked up): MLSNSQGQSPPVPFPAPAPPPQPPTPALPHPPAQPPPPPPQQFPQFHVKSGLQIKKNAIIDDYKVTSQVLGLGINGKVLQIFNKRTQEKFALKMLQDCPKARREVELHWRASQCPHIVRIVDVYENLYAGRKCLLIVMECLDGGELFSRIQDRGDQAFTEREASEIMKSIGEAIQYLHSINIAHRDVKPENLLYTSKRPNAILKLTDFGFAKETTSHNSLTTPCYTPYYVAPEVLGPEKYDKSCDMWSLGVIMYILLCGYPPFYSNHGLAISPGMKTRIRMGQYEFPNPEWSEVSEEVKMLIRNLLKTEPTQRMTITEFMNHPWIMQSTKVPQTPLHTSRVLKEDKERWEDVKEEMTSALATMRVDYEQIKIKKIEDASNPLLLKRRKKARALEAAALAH

Sample 1
Target: Sal-like protein 4, full length isoform B (SALL4, Homo sapiens, UniProt Q9UJQ4-2, residues 1-616)
Method: universal PBM
Form: double-stranded DNA, one strand shown
Sample: in vitro
Concentration: not given
Setting: 8-mer, flanks averaged, mean of replicates
Reading: higher = stronger binding
Residues (chain): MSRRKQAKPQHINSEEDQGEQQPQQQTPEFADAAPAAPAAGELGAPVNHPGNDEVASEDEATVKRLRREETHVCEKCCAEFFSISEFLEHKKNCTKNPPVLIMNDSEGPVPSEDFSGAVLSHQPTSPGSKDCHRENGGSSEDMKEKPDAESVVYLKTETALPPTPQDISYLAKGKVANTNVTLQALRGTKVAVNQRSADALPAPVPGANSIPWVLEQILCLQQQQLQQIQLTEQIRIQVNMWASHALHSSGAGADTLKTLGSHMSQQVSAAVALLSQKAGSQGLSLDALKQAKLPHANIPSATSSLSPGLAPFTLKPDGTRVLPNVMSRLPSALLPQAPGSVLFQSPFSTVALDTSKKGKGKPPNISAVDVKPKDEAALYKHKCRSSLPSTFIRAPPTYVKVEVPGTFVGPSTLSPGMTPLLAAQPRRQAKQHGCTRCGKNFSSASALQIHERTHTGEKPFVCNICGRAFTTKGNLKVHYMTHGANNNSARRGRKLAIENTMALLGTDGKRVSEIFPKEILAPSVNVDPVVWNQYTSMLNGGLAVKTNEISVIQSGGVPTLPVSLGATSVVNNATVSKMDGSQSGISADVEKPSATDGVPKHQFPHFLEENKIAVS
For `CTGGGATC`, the E-score was -0.228.
For `CTAATTCC`, the E-score was 0.0587.
For `GATCAGCC`, the E-score was -0.314.
The E-score of `CTCGGCCC` is reported as -0.296.
`CACCCGGG` gave an E-score of -0.34.
`CAGTCGCG` gave an E-score of -0.411.
For `CGTTCTCA`, the E-score was -0.0765.
For `GAATCACC`, the E-score was -0.0506.

Sample 2
Target: Ras GTPase-activating protein-binding protein 1, RRM domain (G3BP1, Homo sapiens, UniProt Q13283)
Chain of UniProt Q13283 (whole entry, looked up): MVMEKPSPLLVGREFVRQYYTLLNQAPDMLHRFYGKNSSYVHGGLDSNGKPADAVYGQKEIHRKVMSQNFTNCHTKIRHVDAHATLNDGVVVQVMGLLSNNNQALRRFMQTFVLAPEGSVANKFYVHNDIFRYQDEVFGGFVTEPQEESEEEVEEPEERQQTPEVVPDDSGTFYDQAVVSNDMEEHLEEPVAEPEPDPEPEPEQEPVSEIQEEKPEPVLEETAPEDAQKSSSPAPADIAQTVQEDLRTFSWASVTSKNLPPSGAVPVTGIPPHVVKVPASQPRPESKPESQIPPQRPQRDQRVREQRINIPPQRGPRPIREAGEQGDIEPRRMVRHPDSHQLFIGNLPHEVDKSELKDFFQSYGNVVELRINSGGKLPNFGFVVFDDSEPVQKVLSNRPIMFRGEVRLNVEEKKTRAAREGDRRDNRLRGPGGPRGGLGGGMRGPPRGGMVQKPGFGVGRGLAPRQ
Method: RNA Bind-n-Seq
Form: RNA
Sample: in vitro
Concentration: 1 µM
Setting: whole 134-nt RNA, ends assumed
Together with: 150 mM KCl
Reference: input library
Reading: higher = stronger binding
The log2 enrichment of `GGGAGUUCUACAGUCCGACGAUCUUCACCAGUUUCACUGUGAGCCUCAACGAGCUGGAGACAGGCAUGGAGAAGACCCUGCCACCCACGGACUGCCGCCUGCGCCCUGACAUCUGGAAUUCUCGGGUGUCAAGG` is reported as -0.00598.
`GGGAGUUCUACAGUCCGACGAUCCAAGUCCUGUGCUACACAUCGUAUGUACCGAAUCGGUUUGGGGUUUGGGUUUGGGAAAGUAUUAUGUUACGCCGUUCGGAUCUGCACUUCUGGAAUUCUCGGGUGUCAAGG` has a log2 enrichment of -0.204.
With `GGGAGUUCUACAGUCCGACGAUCUCCUGUGCUACACAUCGUAUGUACCGAAUCGGCCCCCCGGGGCCCCCCGGCCCCCCGGGAAAGUAUUAUGUUACGCCGUUCGGAUCUGCAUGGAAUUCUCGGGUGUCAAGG` the log2 enrichment was -0.334.
`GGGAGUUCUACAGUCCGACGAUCCUCAAGUCCUGUGCUACACAUCGUAUGUACCGAAUCGGCCGGGGCCGGGCCGGGAAAGUAUUAUGUUACGCCGUUCGGAUCUGCACUUCCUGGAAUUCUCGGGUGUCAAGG` gave a log2 enrichment of -0.68.
`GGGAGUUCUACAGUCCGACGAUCUGGCCCUGGUGGCAUGCGGGGAGGAAGAGGUGGCCUCAUGGAUCGUGGUGGUCCCGGUGGAAUGCUCAGAGGUGGCCGUGGUGGAGACAGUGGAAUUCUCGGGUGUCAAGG` has a log2 enrichment of 0.881.
`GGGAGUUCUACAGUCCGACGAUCUUUCUAGGGAAGGUGCUUCUGGAAAAGUUGCUGAGGUCUUGUCCUAAGGUGAAUUCAGUAUAUGUUUUGGUGAGGCAGAAAGCUGGACAGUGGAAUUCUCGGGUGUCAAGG` has a log2 enrichment of -0.252.
For `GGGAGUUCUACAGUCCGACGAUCCAAGUCCUGUGCUACACAUCGUAUGUACCGAAUCGGGUUUGGGGUUUGGUUUGGGGAAAGUAUUAUGUUACGCCGUUCGGAUCUGCACUUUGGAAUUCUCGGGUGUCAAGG`, the log2 enrichment was -0.239.
`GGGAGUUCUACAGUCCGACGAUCUGGGAGGUGGAUUUUGUUUAUUUUUUUAGCUCAUUUCCAGGGGUGGGAAUCUUUUUUUAAUAUGUGUCAUGAAUAAAGUUGUUUUUGAAAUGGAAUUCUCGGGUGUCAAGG` gave a log2 enrichment of 2.38.

Sample 3
Target: MAFK, bZIP domain (human)
Method: DHFR protein complementation
Sample: yeast
Setting: single substitutions, most at no-binding floor
Reference: wild-type JUN-FOS pair
Reading: higher = stronger binding
Starting sequence: JUN, bZIP domain (human); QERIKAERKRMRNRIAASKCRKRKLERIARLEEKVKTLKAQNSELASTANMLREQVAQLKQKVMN; partner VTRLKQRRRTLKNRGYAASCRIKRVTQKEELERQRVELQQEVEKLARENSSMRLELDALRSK
`K36R` gave a binding fitness of -1.45 natural log.
The binding fitness of `A57Y` is reported as -1.45 natural log.
The binding fitness of `A57R` is reported as -1.49 natural log.
`A29I` gave a binding fitness of -1.5 natural log.
For `S43E`, the binding fitness was -1.29 natural log.
For `T48K`, the binding fitness was -1.41 natural log.
With `E33F` the binding fitness was -1.5 natural log.
For `K36E`, the binding fitness was -1.49 natural log.

Single results of other studies
The remaining binding of `CCOCCn1cc(C(=O)Nc2ccc(-n3nc(-c4cccnc4)cc3C(F)(F)F)cn2)ccc1=O` is reported as 100% (MAP kinase-activated protein kinase 2 (MAPKAPK2, Homo sapiens, UniProt P49137); cell-free assay, competition with immobilised ligand; 1 µM).

Repeated from above (sample 2):
`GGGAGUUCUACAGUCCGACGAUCCAAGUCCUGUGCUACACAUCGUAUGUACCGAAUCGGUUUGGGGUUUGGGUUUGGGAAAGUAUUAUGUUACGCCGUUCGGAUCUGCACUUCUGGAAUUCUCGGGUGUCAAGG` has a log2 enrichment of -0.204.
With `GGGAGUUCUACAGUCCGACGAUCUCCUGUGCUACACAUCGUAUGUACCGAAUCGGCCCCCCGGGGCCCCCCGGCCCCCCGGGAAAGUAUUAUGUUACGCCGUUCGGAUCUGCAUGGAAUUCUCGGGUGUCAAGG` the log2 enrichment was -0.334.
The log2 enrichment of `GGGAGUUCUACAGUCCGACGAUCUUCACCAGUUUCACUGUGAGCCUCAACGAGCUGGAGACAGGCAUGGAGAAGACCCUGCCACCCACGGACUGCCGCCUGCGCCCUGACAUCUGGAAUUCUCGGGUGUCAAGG` is reported as -0.00598.
